Measured values gathered from unrelated publications.
Numbered parts are unrelated; each lists some results of a single study. Changes are numbered by the printed parent chain.

Block 1
Target: CCND3, cyclin fold, Cln2 fusion (human)
Method: yeast growth competition, sequencing
Sample: yeast
Notes: weak parent motif
Relative to: not given
Direction: higher = stronger binding
Measurement: normalised enrichment score
Parent: GMNC docking peptide (human); KNAKRNLSSEFAN
L7P: 0.096
S8D: 0.172
N6Q: -0.0495
S8W: 0.161
L7V: -0.105
E10Q: 0.436
F11D: 0.407
N2A: 0.00178
N6R: 0.0267
K4E: -0.329
L7C: -0.227
S8L: 0.278
F11T: 0.491
N2Q: 0.377
F11G: 0.286
S8V: 0.531
K4W: 0.0955
E10M: 0.0453
S8I: -0.046
S8F: 0.239
A3R: 0.363
F11A: 0.0788
E10D: -0.157

Block 2
Target: Fragile X messenger ribonucleoprotein 1, C-terminal low-complexity region (Fmr1, Mus musculus, UniProt P35922)
Method: RNA Bind-n-Seq
Molecule type: RNA
Sample: in vitro
Tested at: 200 nM
Notes: whole 134-nt RNA, ends assumed
With: 150 mM KCl
Relative to: input library
Direction: higher = stronger binding
Measurement: log2 enrichment
Constant ends, left off below: GGGAGUUCUACAGUCCGACGAUC … UGGAAUUCUCGGGUGUCAAGG
CCUCAAGUCCUGUGCUACACAUCGUAUGUACCGAAUCGGGGAGGGAGGGAGGGAAAGUAUUAUGUUACGCCGUUCGGAUCUGCACUUCCA: 1.18
UGUGCUACACAUCGUAUGUACCGAAUCGGGGAAAAAAAGGAAAAAAAGGGGAAAAAAAGGGGAAAGUAUUAUGUUACGCCGUUCGGAUCU: -0.131
UCUCUCUCUUUCCCUCUAGGGUCACAUCUCCCAGGAAGAUCUCACUUCCCCACAGAAGCUCUUGGCCUGGCCUCCUGCAGUGCCACGCUC: 0.805
UCCUGUGCUACACAUCGUAUGUACCGAAUCAAAUUUUUUUAAAUUUUUAAACCCCCAAAAAAGUAUUAUGUUACGCCGUUCGGAUCUGCA: 0.432
CCUGUGCUACACAUCGUAUGUACCGAAUCGGAAAAAAAGGAAAAAAAGGGGAAAAAAAGGAAAGUAUUAUGUUACGCCGUUCGGAUCUGC: -0.738
UAACUUUAGAGGAGGAUCUGAUGGAUAUGGCAGUGGACGUGGAUUUGGGGAUGGCUAUAAUGGGUAUGGAGGAGGACCUGGAGGUGUCAA: 0.094
AUUCUUCAUUGAGGGUGAGGAUCUCCCAAUGGGAGACUGCUCUGAAAAGAGCAUGUGCUUUUUGAAUUAGAUAACCUACUAUAAUCAUGG: -0.999
CUCAAGUCCUGUGCUACACAUCGUAUGUACCGAAUCGGUUGGGGUUGGUUGGGGAAAGUAUUAUGUUACGCCGUUCGGAUCUGCACUUCC: 1
UGUGCUACACAUCGUAUGUACCGAAUCGGGGUUUUUUUGGGGUUUUUGGGGUUUUUUUGGGGAAAGUAUUAUGUUACGCCGUUCGGAUCU: 0.359

Block 3
Target: ABI1, truncated, D143A, DHFR fusion (Arabidopsis thaliana)
Method: DHFR PCA, deep sequencing
Sample: yeast
Notes: methotrexate growth selection, single substitutions
With: (+)-ABA 0.11 µM
Relative to: wild-type fitted maximum
Direction: higher = stronger binding
Measurement: relative binding score
Parent: PYL1, truncated, DHFR fusion (Arabidopsis thaliana); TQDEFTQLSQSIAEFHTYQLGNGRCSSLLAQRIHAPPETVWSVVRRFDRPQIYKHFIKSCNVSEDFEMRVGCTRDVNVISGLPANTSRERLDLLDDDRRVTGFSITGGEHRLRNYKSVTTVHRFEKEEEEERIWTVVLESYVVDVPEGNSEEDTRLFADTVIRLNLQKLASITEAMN
I105N: -5.59%
A30M: 46.3%
E130L: 11.5%
T173V: 19.2%
S42W: -7.4%
H34C: 40%
C72R: -2.93%
D159M: -17.8%
E147N: 13.7%
T86G: 5.63%
S63T: 19.5%
V145P: -7.34%
V43G: -5.33%
I172P: -1.9%
E14G: 0.799%
I162R: 7.38%

Block 4
Target: Interferon regulatory factor 5, full length, phosphomimetic (IRF5, Homo sapiens, UniProt Q13568-2, residues 1-514, S451D/S453D/S456D/S462D)
Method: protein-binding microarray
Molecule type: double-stranded DNA, one strand shown
Sample: in vitro
Tested at: 940 nM top
Notes: 60-bp whole probe
With: salmon DNA 0.4 mg/ml
Relative to: random background probes
Direction: higher = stronger binding
Measurement: fitted relative affinity
Constant ends, left off below: GCCTAGCAC … GTCTTGATTCGCTTGACGCTGCTG
TTAGAGTCCAGTTTCGATTAGTGCTAG: 8.12 z-score
TTAGCTATCCTACTGCTTTAGTGCTAG: 0.2 z-score
TTAGGTTTCCGTTTCCTTTAGTGCTAG: 3.07 z-score
TCACCAATGGTCTTTCCAACTGTGCTA: 0.0416 z-score
GGCGGACTGGGGTTTCGGGACGTGCTA: 1.62 z-score
TTAGGGTTCGGACTGGGTTAGTGCTAG: -0.0617 z-score
TCAATCATCCGTTTCTTACTGTGCTAG: 0.976 z-score
GACGGACTGCTTTTCCCGACGTGCTAG: 0.0706 z-score
GACGGACTGGACACTGGGGGCGTGCTA: -0.398 z-score
TCTACTGTCTGTTTCCTCTTGTGCTAG: 0.939 z-score
GACGGTATCGGTAACGGGACGTGCTAG: 7.04 z-score
TCACTTCTGGTGCTCATACTGTGCTAG: 0.759 z-score
GACGGTTCCGACACTGGGGACGTGCTA: 0.237 z-score
TCAGTTGTAGTTTTCATACTGTGCTAG: 0.409 z-score
GACGGTTTCCTTGTCCTGACGTGCTAG: 1.15 z-score
GACGGTTGCGACTTTCGGGACGTGCTA: 1.18 z-score
TGAGATCTCAGTATCGATTAGTGCTAG: 4.92 z-score
GTAGATTCCAGTTTCGATTAGTGCTAG: 8.78 z-score
CACGGACTGCTTTTCCTGACGTGCTAG: 0.0592 z-score
